Experimental data collected from several papers.
A part holds a random share of what one study measured.

Block 1
Target: Interferon regulatory factor 7, full length, phosphomimetic (IRF7, Homo sapiens, UniProt Q92985, residues 1-503, S101K/S471D/S472D/S475D/S476D/S477D/S483D/S484D/S487D)
Method: protein-binding microarray
Molecule type: double-stranded DNA, one strand shown
Medium: in vitro
Tested at: 250 nM
Notes: 60-bp whole probe
With: salmon DNA 0.4 mg/ml
Baseline: random background probes
Reading: higher = stronger binding
Constant ends, left off below: GCCTAGCAC … GTCTTGATTCGCTTGACGCTGCTG
Target sequence (chain): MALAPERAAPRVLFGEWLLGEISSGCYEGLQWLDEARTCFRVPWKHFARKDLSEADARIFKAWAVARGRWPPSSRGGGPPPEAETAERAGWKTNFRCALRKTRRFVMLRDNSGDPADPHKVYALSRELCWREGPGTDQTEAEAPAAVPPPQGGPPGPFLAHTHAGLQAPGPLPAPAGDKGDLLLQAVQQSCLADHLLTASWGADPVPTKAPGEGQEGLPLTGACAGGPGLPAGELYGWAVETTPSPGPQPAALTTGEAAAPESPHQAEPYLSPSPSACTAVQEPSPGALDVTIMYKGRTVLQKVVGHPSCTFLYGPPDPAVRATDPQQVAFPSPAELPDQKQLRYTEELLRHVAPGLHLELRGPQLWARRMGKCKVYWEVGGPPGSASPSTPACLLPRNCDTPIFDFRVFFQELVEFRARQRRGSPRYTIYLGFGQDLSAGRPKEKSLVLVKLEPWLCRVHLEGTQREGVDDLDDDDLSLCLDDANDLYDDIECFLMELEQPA
The log fluorescence of `GGCGGTTTCGGACTGGGGACGTGCTAG` is reported as 3.46 z-score.
The log fluorescence of `GACGGACTGATTATCCTGACGTGCTAG` is reported as -0.342 z-score.
With `TTAGTTATCGACACTGGGTTAGTGCTA` the log fluorescence was 0.178 z-score.
For `TCATCCTTTACTTTCTTACTGTGCTAG`, the log fluorescence was 1.3 z-score.
With `TAAGGACTGGGGACTGGGTTAGTGCTA` the log fluorescence was -0.471 z-score.
The log fluorescence of `GACGGTCTGCTACTGCTGACGTGCTAG` is reported as -0.803 z-score.
With `GACGGTATCGGGTATCGTGACGTGCTA` the log fluorescence was 0.175 z-score.
`TCAATATTCATTTTATTACTGTGCTAG` gave a log fluorescence of 1.34 z-score.
For `TTAGGCATCGACTATCGGTTAGTGCTA`, the log fluorescence was -0.469 z-score.
`TCATAGGTTTCACTTTCCACTGTGCTA` gave a log fluorescence of 6.3 z-score.
`TTAGATCTCCGACTGGATTAGTGCTAG` gave a log fluorescence of -0.137 z-score.
With `TTATGACTGGGGTATCGGTTAGTGCTA` the log fluorescence was -0.0796 z-score.
`CCAAATCTGTGTTATTAAAATGTGCTA` gave a log fluorescence of 0.285 z-score.
`TAAGGTATCCTACTGCTTTAGTGCTAG` has a log fluorescence of -0.029 z-score.
For `TTAGGACTGGGTCTCGGATAGTGCTAG`, the log fluorescence was 0.341 z-score.
For `GACGGACTGGGTATGGGGACGTGCTAG`, the log fluorescence was -0.372 z-score.
`CTAGGTTTCGGGTTTCGGTTAGTGCTA` has a log fluorescence of 12.5 z-score.
The log fluorescence of `TTAGATTTCAGTCTCGATTTGTGCTAG` is reported as 5.76 z-score.
For `AACGGACTGGGGTATCGGGACGTGCTA`, the log fluorescence was -0.493 z-score.

Block 2
Target: Histone acetyltransferase KAT6A, winged helix 2, GST fusion (KAT6A, Homo sapiens, UniProt Q92794, residues 85-181)
Method: protein binding microarray
Molecule type: double-stranded DNA, one strand shown
Medium: in vitro
Tested at: not given
Notes: 8-mer, flanks averaged, mean of 2 arrays, mostly near background
Baseline: not given
Reading: higher = stronger binding
Construct (chain): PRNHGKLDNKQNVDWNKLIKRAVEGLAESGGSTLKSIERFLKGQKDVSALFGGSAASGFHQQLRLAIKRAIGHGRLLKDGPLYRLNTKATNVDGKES
For `AGGTAGCA`, the E-score was -0.0511.
`CTTCAGGA` gave an E-score of 0.0188.
With `ACGTCTAT` the E-score was -0.273.
The E-score of `CAGGTGCC` is reported as -0.0941.
`GTTTCACA` has an E-score of 0.0366.
With `GCGATAGA` the E-score was 0.0575.
`ACAGCGGT` gave an E-score of -0.0463.
`GACTGGAC` gave an E-score of -0.0154.
For `GCTTAGCA`, the E-score was 0.131.
For `AGAACTAA`, the E-score was -0.00414.
`CAAACCCG` gave an E-score of 0.131.
For `CTTAGGAC`, the E-score was -0.11.
`GACTTGGA` gave an E-score of -0.0773.
The E-score of `ACTTGCTC` is reported as -0.126.
`AAGATGCA` has an E-score of 0.0509.
`CCGCGTAC` gave an E-score of 0.144.

Block 3
Target: Sal-like protein 4, full length isoform B (SALL4, Homo sapiens, UniProt Q9UJQ4-2, residues 1-616)
Method: universal PBM
Molecule type: double-stranded DNA, one strand shown
Medium: in vitro
Tested at: not given
Notes: 8-mer, flanks averaged, mean of replicates
Reading: higher = stronger binding
Residues (chain): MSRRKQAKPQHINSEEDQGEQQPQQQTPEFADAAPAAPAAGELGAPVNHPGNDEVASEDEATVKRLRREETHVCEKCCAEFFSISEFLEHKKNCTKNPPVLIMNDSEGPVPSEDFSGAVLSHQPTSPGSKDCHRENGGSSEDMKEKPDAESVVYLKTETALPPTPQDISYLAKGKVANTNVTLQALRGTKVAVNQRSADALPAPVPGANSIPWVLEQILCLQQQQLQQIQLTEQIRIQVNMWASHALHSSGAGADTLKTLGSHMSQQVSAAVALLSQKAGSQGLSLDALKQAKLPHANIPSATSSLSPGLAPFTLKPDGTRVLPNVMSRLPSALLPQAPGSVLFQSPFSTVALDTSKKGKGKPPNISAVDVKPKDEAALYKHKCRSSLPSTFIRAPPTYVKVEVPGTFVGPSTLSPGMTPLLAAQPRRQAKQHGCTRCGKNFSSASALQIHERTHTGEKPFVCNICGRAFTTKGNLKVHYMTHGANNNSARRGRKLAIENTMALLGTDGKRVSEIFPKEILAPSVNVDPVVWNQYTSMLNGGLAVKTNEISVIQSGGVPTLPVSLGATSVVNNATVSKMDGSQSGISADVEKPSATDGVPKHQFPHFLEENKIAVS
`ACGAAGAA` has an E-score of 0.209.
For `CTCATTGC`, the E-score was 0.0286.
`AGTGCAAC` gave an E-score of -0.0728.
With `GCGAGAAA` the E-score was -0.0265.
For `ACCCCCGG`, the E-score was -0.15.
`CGATACGC` has an E-score of -0.0318.
`ACCCAATA` has an E-score of 0.0838.
For `ATGCGCAG`, the E-score was -0.115.
`CGAGCTGC` has an E-score of -0.212.
For `ATGTCTGA`, the E-score was 0.204.
For `GAAAACTA`, the E-score was 0.116.
With `TAGCTGAA` the E-score was 0.085.
The E-score of `CTTCGATC` is reported as -0.0972.
The E-score of `AAGGAAGC` is reported as -0.144.
With `ACTGACAG` the E-score was -0.0233.
`GCCTTACC` gave an E-score of -0.106.
`GCTAACTA` has an E-score of 0.0108.
With `CAGCCGAC` the E-score was -0.293.
For `CTCGCCTA`, the E-score was -0.139.
With `GATCAATA` the E-score was 0.363.
`ACTCGTAG` has an E-score of 0.00834.
`ATTTTACG` has an E-score of 0.284.
For `AGATCTTA`, the E-score was 0.121.
The E-score of `AATAGTCC` is reported as -0.0732.
`CCGGGTAC` has an E-score of -0.308.

Block 4
Target: Protein C-ets-1 (ETS1, Homo sapiens, UniProt P14921, residues 1-441, K379A, full length assumed)
Method: protein-binding microarray
Molecule type: double-stranded DNA, one strand shown
Medium: in vitro
Tested at: not given
Notes: k-mer, scored over probes, only values ≥0.25
Reading: higher = stronger binding
Target sequence (chain): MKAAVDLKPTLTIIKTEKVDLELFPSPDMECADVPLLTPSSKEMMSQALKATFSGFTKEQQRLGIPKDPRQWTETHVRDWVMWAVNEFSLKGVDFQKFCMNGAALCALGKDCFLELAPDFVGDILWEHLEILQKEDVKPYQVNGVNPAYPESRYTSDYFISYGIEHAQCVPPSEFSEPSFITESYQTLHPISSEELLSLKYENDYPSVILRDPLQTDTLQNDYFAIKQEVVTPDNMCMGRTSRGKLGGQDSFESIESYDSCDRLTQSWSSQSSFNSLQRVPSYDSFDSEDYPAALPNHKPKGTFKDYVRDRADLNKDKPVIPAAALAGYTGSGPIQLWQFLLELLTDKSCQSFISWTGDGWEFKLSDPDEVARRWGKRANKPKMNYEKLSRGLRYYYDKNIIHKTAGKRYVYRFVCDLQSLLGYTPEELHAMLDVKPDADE
`CCCCGGAA` has an E-score of 0.391.
For `CAACGTCG`, the E-score was 0.291.
For `GTCGTTCA`, the E-score was 0.301.
The E-score of `CCGCCCGG` is reported as 0.383.
The E-score of `ACCGGTGA` is reported as 0.38.
The E-score of `ACTACCAT` is reported as 0.319.
For `GCAATAAC`, the E-score was 0.251.
For `GTCGGTGA`, the E-score was 0.274.
With `ACCCGCGC` the E-score was 0.269.
`GCAATCAA` gave an E-score of 0.277.
`AATCCCCG` gave an E-score of 0.319.
The E-score of `CGGAACCG` is reported as 0.348.
With `AATTTCCG` the E-score was 0.303.
`GCCGGTCA` has an E-score of 0.28.
`ACAACTTC` has an E-score of 0.285.

A few entries again (block 4):
The E-score of `ACCGGTGA` is reported as 0.38.
The E-score of `ACTACCAT` is reported as 0.319.
For `GCAATAAC`, the E-score was 0.251.
For `GTCGGTGA`, the E-score was 0.274.
With `ACCCGCGC` the E-score was 0.269.
`GCAATCAA` gave an E-score of 0.277.
`AATCCCCG` gave an E-score of 0.319.
The E-score of `CGGAACCG` is reported as 0.348.
